Measurements gathered from unrelated publications.
Compare with care: the assays were run in different laboratories. Numbers after ± are the reported error.
UniProt Q99759, sequence (whole entry, looked up): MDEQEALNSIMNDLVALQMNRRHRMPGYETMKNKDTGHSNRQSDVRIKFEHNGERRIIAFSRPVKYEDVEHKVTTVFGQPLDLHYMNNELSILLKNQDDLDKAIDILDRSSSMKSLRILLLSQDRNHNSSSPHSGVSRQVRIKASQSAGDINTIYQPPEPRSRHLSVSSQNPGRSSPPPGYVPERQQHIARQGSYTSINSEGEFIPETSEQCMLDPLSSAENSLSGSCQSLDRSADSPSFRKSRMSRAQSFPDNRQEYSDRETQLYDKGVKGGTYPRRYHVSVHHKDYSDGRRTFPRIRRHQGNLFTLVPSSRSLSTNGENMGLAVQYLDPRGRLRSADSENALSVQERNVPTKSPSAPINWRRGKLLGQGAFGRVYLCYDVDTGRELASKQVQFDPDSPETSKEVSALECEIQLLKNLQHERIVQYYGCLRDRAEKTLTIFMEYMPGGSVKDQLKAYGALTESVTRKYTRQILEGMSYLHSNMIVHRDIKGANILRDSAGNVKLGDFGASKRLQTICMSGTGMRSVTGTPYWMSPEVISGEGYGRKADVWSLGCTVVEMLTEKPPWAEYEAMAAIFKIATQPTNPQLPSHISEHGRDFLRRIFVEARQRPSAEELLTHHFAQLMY
UniProt P21554, sequence (whole entry, unmodified, looked up): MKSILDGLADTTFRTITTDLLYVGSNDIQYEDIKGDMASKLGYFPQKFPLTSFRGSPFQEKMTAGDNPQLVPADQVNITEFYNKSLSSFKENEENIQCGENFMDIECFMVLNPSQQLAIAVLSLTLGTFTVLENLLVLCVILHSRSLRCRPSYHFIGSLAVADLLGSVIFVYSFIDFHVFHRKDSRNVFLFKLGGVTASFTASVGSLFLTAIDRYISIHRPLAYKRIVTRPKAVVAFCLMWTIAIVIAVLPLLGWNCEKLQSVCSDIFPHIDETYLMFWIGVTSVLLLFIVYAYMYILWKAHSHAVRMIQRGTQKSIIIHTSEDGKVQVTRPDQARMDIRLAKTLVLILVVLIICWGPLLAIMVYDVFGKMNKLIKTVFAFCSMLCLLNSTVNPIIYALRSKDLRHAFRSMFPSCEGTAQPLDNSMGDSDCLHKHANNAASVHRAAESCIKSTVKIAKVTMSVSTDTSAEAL
UniProt P30291, sequence (whole entry, looked up): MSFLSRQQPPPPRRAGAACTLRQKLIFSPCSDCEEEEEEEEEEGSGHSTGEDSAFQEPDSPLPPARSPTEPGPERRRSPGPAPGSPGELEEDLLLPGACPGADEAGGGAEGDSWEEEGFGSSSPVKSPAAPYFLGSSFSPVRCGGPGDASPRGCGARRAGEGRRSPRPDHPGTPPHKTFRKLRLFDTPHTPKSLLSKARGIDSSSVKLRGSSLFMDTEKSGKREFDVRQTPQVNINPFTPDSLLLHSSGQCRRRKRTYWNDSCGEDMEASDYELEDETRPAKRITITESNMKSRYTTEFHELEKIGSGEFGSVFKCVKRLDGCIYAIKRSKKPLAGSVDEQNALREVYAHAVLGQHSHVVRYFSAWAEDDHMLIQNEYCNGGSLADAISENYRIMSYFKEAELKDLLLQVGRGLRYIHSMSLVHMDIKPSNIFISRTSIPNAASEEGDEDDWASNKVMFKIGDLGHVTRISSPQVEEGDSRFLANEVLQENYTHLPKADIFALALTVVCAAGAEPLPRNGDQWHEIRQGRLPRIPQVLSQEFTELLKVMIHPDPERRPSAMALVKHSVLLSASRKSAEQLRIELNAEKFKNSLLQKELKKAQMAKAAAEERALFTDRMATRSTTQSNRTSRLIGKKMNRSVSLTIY
UniProt P10721, sequence (whole entry, unmodified, looked up): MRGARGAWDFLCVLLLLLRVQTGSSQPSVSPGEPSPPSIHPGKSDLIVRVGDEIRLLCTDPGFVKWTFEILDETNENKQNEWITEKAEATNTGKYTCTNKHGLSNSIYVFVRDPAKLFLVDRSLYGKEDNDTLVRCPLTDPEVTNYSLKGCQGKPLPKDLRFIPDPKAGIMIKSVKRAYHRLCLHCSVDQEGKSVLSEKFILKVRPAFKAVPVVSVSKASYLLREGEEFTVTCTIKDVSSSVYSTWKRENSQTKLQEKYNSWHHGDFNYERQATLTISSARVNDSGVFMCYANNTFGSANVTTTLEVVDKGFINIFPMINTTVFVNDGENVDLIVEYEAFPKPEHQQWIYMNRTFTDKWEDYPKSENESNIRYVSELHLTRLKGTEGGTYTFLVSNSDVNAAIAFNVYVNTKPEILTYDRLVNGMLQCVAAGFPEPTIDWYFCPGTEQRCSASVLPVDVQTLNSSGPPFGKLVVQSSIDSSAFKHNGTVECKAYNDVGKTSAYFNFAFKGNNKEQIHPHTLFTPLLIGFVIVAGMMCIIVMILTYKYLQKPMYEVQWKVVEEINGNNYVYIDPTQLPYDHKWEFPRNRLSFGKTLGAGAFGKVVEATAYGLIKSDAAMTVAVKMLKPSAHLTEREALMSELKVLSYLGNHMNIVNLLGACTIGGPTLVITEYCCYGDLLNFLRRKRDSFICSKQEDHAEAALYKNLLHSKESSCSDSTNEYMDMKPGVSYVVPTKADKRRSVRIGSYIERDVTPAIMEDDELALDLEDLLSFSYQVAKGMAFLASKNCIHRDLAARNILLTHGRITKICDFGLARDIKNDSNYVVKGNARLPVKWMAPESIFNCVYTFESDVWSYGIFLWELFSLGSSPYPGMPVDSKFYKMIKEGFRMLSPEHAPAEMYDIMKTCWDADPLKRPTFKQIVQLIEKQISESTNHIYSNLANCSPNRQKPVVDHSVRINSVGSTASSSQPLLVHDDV
UniProt Q9UM73, sequence (whole entry, looked up): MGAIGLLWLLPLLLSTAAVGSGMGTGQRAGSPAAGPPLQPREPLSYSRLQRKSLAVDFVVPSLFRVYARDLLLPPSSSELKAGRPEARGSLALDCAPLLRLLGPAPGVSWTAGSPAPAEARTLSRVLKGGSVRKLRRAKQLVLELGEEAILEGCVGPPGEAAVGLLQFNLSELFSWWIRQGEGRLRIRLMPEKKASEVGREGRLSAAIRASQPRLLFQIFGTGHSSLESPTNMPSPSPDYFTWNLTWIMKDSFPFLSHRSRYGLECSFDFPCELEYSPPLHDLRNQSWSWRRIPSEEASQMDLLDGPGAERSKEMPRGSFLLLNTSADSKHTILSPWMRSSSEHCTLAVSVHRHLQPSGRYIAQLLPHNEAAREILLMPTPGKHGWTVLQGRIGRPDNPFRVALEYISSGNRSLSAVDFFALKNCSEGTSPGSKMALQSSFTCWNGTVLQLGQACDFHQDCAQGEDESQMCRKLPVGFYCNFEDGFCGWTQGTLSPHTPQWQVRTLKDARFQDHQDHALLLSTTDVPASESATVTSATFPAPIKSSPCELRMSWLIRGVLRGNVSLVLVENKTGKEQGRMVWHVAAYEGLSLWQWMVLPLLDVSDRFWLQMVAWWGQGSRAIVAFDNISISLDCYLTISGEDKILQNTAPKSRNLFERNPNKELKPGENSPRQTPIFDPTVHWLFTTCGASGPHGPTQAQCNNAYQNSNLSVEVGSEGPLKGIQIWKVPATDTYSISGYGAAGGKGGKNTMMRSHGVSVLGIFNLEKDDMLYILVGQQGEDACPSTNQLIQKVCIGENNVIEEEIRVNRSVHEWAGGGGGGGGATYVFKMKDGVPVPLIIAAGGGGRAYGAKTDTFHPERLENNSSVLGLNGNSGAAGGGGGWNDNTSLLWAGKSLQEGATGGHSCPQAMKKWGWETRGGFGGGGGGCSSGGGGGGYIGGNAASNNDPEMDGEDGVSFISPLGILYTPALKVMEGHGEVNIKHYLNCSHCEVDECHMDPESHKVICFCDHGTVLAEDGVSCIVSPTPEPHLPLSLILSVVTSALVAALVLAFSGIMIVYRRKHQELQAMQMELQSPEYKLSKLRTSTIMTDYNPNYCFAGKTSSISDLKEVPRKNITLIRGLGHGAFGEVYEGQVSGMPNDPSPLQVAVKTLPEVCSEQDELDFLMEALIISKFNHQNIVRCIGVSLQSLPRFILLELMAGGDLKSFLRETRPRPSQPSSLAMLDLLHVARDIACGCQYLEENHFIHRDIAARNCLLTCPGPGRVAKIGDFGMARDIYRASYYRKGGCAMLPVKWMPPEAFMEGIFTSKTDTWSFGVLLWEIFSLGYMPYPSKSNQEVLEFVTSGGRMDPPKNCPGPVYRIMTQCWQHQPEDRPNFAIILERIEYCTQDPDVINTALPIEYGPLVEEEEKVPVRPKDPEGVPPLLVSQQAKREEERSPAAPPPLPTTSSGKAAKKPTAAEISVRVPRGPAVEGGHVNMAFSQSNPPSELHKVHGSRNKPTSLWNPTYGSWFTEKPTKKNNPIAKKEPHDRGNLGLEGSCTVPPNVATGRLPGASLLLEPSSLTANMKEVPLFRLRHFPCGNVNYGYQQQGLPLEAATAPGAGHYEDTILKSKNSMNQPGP
UniProt O14965, sequence (whole entry, looked up): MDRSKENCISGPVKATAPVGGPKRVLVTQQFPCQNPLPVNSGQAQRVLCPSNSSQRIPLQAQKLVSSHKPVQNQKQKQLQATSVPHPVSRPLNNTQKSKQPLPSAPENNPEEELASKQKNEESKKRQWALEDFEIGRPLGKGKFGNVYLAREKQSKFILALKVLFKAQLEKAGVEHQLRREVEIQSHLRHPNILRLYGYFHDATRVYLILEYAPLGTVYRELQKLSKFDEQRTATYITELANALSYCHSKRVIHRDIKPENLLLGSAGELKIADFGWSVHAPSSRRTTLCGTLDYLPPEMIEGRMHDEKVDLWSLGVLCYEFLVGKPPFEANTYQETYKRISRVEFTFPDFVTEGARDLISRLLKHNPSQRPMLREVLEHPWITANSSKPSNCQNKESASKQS

CN(C)[C@H]1C[C@@]23CC[C@@]4(O2)C(=CC[C@]2(C)[C@@H](c5ccc6ccncc6c5)CC[C@H]24)C=C3[C@@H](O)[C@@H]1O
inhibition (MAP3K3 (Homo sapiens, UniProt Q99759); ATP probe labelling, inhibitor, KiNativ profiling; 0.1 µM): 2.6%

COc1ccccc1-c1n[nH]c2nc(N[C@H]3CC[C@H](NS(=O)(=O)CC(C)C)CC3)ncc12
relative abundance (bead binding, competition bead pull-down, refers to: LINJ.21.1330; Leishmania donovani extract; 10 µM; reference: vehicle): 0.97

CS(C)(=O)=Nc1ccc(-c2ccc(-c3nc4cc(O[C@@H]5CO[C@H]6[C@@H]5OC[C@H]6O)[nH]c4cc3F)cc2)cc1
inhibition (WEE1 (Homo sapiens, UniProt P30291); enzyme activity, inhibitor; 10 µM): 10%

O=C1NC2(CC2)COc2ncc(F)cc2[C@H]2COCCN2c2ccn3ncc1c3n2
organ-to-brain weight ratio (Sprague-Dawley rat, female, uterus; oral, 20 mg/kg/day, 4 weeks dosing, end of recovery): 34.3 ± 8.38%

O=C1NC(=O)c2c1c1cc(F)c[n+]3c1c1c2c2cc(O)ccc2[n]1[Ru-4]312([N]=C=S)[S+]3CC[S+]1CC[S+]2CC3 (stereo not drawn)
remaining activity (KIT (Homo sapiens, UniProt P10721, V560G); enzyme activity; 100 nM, human enzyme, together with: 10 µM ATP; reference: untreated): 13%

CC(C)(C)C(=O)OCOP(=O)(OCOC(=O)C(C)(C)C)C1CCCN(O)C1=O (stereo not drawn)
GI50 (MCF7): 338 nM

Cc1ccc2c(C(C[N+](=O)[O-])c3cccs3)c(-c3ccccc3)[nH]c2c1 (stereo not drawn)
Emax (CNR1 (Homo sapiens, UniProt P21554, Y397F); β-arrestin recruitment, agonist, luciferase): 26.4%

CC[C@H](C)[C@H](NC(=O)[C@H](CO)NC(=O)[C@H](Cc1ccc(O)cc1)NC(=O)[C@H](Cc1ccc(O)cc1)NC(=O)[C@H](CC(N)=O)NC(=O)CNC(=O)[C@H](CO)NC(=O)[C@H](Cc1ccc(O)cc1)NC(=O)[C@H](CO)NC(=O)[C@H](CO)NC(=O)[C@H](CC(N)=O)NC(=O)COCCOCCNC(=O)CN1CCN(CC(=O)O)CCN(CC(=O)O)CCN(CC(=O)O)CC1)C(=O)N[C@@H](CC(C)C)C(N)=O [copper-64 labelled]
maximum pancreas uptake (dynamic PET; tamoxifen-induced PDAC mouse model, pancreas; 0.6 min, CLDN4-expressing tumours): 17.3 %IA/cc

Nc1ccc(/C=C/C(=O)N2CCc3c(oc4c(-c5ccc(F)cc5)cc(-c5ccc(C(=O)N6CCC(F)(F)CC6)cn5)cc34)C2)cn1
remaining binding (ALK (Homo sapiens, UniProt Q9UM73); binding, competition with immobilised ligand; 1 µM): 98%

N[C@H](C(=O)N1CCCC1)C1CCN(c2nccc3c(-c4ncc(Cl)cc4Cl)cccc23)CC1
inhibition (Aurora kinase A (AURKA, Homo sapiens, UniProt O14965); enzyme activity, inhibitor; 10 µM): -4%

CC(C)[C@H]1NC(=O)C[C@H]2/C=C/CCSSC[C@@H](NC1=O)C(=O)N[C@H](Cc1cccc3ccccc13)C(=O)NCC(=O)O2
inhibition (EPHA7 (Homo sapiens, UniProt Q15375); enzyme activity, inhibitor; 10 µM): 2.3%

Cc1sc2c(c1C)C(c1ccc(Cl)cc1)=NC(CC(=O)OC(C)(C)C)c1nnc(C)n1-2 (stereo not drawn)
specific binding (TBXA2R (Homo sapiens, UniProt P21731); antagonist radioligand binding; 1 µM): 119%
